Measured values of several laboratories.
Each line is one published result; not all experiments were run side by side. Values joined by “and” are separate records of one study, mostly repeats; a detail may differ. ± marks the error that the study gave.
Sequence of UniProt P06213 (whole entry, looked up): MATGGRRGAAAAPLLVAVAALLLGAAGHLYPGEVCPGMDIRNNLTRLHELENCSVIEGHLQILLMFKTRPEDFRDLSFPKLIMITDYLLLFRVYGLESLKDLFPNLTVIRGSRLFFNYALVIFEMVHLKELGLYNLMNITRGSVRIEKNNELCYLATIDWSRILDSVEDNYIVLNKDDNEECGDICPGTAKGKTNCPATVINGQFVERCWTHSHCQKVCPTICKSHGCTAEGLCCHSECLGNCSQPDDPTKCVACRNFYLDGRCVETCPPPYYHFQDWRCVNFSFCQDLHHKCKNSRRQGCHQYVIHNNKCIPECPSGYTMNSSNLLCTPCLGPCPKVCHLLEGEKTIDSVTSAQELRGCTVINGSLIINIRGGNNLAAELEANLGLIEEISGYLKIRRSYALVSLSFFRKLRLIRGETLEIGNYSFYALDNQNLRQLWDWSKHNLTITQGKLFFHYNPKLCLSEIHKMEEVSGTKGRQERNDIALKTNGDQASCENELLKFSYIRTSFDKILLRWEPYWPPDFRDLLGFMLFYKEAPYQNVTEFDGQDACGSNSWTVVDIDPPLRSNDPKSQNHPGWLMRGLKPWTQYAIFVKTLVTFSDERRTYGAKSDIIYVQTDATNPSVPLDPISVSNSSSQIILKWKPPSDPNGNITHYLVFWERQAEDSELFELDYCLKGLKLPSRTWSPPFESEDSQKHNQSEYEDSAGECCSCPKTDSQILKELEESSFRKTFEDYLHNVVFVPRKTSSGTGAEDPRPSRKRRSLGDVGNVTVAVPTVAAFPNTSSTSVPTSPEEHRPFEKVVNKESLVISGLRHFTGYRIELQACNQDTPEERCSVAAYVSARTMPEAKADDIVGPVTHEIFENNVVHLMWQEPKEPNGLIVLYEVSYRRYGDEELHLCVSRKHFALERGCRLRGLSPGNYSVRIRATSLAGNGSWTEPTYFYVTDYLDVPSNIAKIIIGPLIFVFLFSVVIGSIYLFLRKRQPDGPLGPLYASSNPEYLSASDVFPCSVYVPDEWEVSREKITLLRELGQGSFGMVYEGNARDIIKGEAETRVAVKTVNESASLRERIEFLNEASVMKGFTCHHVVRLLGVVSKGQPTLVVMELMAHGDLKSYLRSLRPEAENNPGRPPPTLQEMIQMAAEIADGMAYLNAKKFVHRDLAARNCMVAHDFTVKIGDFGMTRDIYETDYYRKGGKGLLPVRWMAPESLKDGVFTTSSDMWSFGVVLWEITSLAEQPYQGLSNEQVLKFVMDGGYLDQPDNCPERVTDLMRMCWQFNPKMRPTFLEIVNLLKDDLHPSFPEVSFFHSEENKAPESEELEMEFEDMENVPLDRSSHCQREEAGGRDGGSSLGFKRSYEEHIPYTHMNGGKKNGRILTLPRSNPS

CC(C)C[C@@H](NC(=O)[C@@H](CC(C)C)NC(=O)[C@@H](CC(=O)O)NC(=O)[C@@H](CC(C)C)NC(=O)[C@@H](CC(C)C)NC(=O)[C@@H](CC(C)C)NC(=O)[C@H](NC(=O)[C@@H](CC(=O)O)NC(=O)[C@H](NC(=O)[C@H]1CCCN1C(=O)[C@@H](Cc1ccccc1)NC(=O)[C@@H](CC(C)C)NC(=O)[C@@H](CC(C)C)NC(=O)[C@@H](CC(=O)O)NC(=O)[C@@H](CC(C)C)NC(=O)[C@@H](Cc1ccc(O)cc1)NC(=O)[C@@H](C)NC(=O)[C@@H](CCCNC(=N)N)NC(=O)[C@@H](Cc1c[nH]c2ccccc12)NC(=O)[C@H]1CCCN1C(=O)[C@@H](CC(N)=O)NC(=O)[C@@H](CCC(N)=O)NC(=O)[C@@H](CC(=O)O)NC(=O)[C@@H](CC(=O)O)NC(=O)[C@@H](CSC1CC(=O)N(CCNC(=O)CN2CCN(CC(=O)O)CCN(CC(=O)O)CC2)C1=O)NC(=O)[C@@H](C)N)[C@H](C)O)[C@H](C)O)C(=O)N[C@H](Cc1c[nH]c2ccccc12)C(=O)O (stereo partly drawn) [fluorine-18 labelled] — tissue uptake (male nude mice, PC-3 xenograft, blood; intravenous, 4 h): 11.6 %ID/g
CCN(C(=O)c1cc(F)ccc1Oc1nncnc1N1CCC2(C1)CN([C@H](CCCN(C)CCOC)C(C)C)C2)C(C)C — GI50 (SK-OV-3; cell growth or viability; 7 days): > 10000 nM
C=CC(=O)N1[C@H](c2ccc3c(c2)OCO3)c2[nH]c3ccccc3c2C[C@@H]1C(=O)N1CCN(C)CC1 — relative co-enrichment (human cyclin E1 N112C-3xFLAG:CDK2; co-IP with TMT proteomics, refers to: CDKN1A; concentration not given, P38936; baseline: wild type DMSO): 132%
C[C@@H](O)[C@@H]1NC(=O)[C@H](CCCCN)NC(=O)[C@@H](Cc2c[nH]c3ccccc23)NC(=O)[C@H](Cc2ccc(O)cc2)NC(=O)[C@@H](NC(=O)[C@@H](Cc2ccccc2)NC(=O)CN2CCN(CC(=O)O)CCN(CC(=O)O)CCN(CC(=O)O)CC2)CSSC[C@@H](C(=O)N[C@H](CO)[C@@H](C)O)NC1=O [gallium-67 labelled] — tissue uptake (gamma counting; ICR mice, male, spleen; iv, 11 kBq/mouse, 3 h): 1.69 ± 0.23 %ID/g
CN1CCCNC(=O)c2cccc(c2)C(=O)NCCCN(C)CCCNc2cccc3c2C(=O)c2cccc(c2C3=O)NCCC1 — log2 fold change (SAS; RNA-seq, refers to: PVT1 mRNA; 1 µM, 6 h; baseline: untreated cells): 0.732
C=C1CC[C@H](OCCCNC(=O)CCOCCOCCOCCOCCOCCOCCOCCOCCOCCOCCOCCOCCOCCOCCOCCOCCOCCOCCOCCOCCOCCOCCOCCOCCOCCOCCOCCOCCOCCOCCOCCOCCOCCOCCOCCOCCNC(=O)CCN2C(=O)CC(SC[C@H](NC(=O)[C@H](Cc3ccccc3)NC(=O)[C@H](CC(N)=O)NC(=O)[C@H](Cc3c[nH]cn3)NC(=O)[C@@H](NC(=O)[C@H](CC(=O)O)NC(=O)[C@H](CCC(N)=O)NC(=O)[C@H](CC(C)C)NC(=O)[C@H](CCCCN)NC(=O)[C@H](CCCCN)NC(=O)[C@H](CCCNC(=N)N)NC(=O)[C@H](CC(C)C)NC(=O)[C@H](Cc3c[nH]c4ccccc34)NC(=O)[C@H](CCC(=O)O)NC(=O)[C@@H](NC(=O)[C@H](CCCNC(=N)N)NC(=O)[C@H](CCC(=O)O)NC(=O)[C@H](CCSC)NC(=O)[C@H](CO)NC(=O)[C@H](CC(N)=O)NC(=O)[C@H](CC(C)C)NC(=O)[C@H](Cc3c[nH]cn3)NC(=O)[C@H](CCCCN)NC(=O)CNC(=O)[C@H](CC(C)C)NC(=O)[C@H](CC(N)=O)NC(=O)[C@H](Cc3c[nH]cn3)NC(=O)[C@H](CCSC)NC(=O)[C@H](CC(C)C)NC(=O)[C@H](CCC(N)=O)NC(=O)[C@@H](NC(=O)[C@H](CCC(=O)O)NC(=O)[C@H](CO)NC(=O)[C@@H](NC(=O)[C@@H](N)CO)C(C)C)[C@@H](C)CC)C(C)C)C(C)C)C(=O)O)C2=O)C/C1=C/C=C1\CCC[C@]2(C)[C@@H]([C@H](C)CCCC(C)(C)O)CC[C@@H]12 (stereo partly drawn) — Cmax (male Sprague-Dawley rat, plasma; subcutaneous, 30 µg/kg, single dose): 13.9 ng/mL
Nc1ncc(-c2cc(-c3cnn(CC(F)(F)F)c3)ncc2F)nc1C(=O)NC1CNCC(F)C1 (stereo not drawn) — remaining binding (PRKCE; KINOMEscan; 1 µM; baseline: DMSO control): 95%
Cc1ncsc1-c1ccc(C(C)NC(=O)C2CC(O)CN2C(=O)C(NC(=O)CCCCCCCCCCN2CCCC(Nc3ncc(Cl)c(Nc4ccccc4S(=O)(=O)C(C)C)n3)C2)C(C)(C)C)cc1 (stereo not drawn) — log2 fold change (22Rv1; RNA-seq, refers to: ZNF566 mRNA; concentration not given; baseline: DMSO): -1.14
Cn1ncc2cc(-c3cncc(Cl)c3N3CCC4(CCNC4=O)CC3)ccc21 — log2 fold change (LS174T; gene expression, microarray, refers to: SLC2A4 (GLUT4) mRNA; concentration not given, 24 h; baseline: untreated cells): 2.68
Cc1nn(-c2cccc(N)c2)c(=O)c2cnc(Nc3ccc(N4CCNCC4)cc3)nc12 — IC50 (Insulin receptor (INSR, Homo sapiens, UniProt P06213); kinase activity, inhibitor, SelectScreen kinase profiling): > 10000 nM
CC(C)c1ccc(N(C)c2ccc3c(c2)OCC[C@H]3CNc2cnccc2C(=O)O)cc1 — IC50 (JIMT-1; cell viability, CellTiter-Glo; 7 days): 61.9 nM
CC(C)C[C@H](NC(=O)[C@H](Cc1ccc(O)cc1)NC(=O)[C@@H](CCCNC(=N)N)NC(=O)[C@@H](CO)NC(=O)[C@H](Cc1ccccc1)NC(=O)[C@H](CC1CCCCC1)NC(=O)[C@H](CC(=O)O)NC(=O)CN1CCN(CC(=O)O)CCN(CC(=O)O)CCN(CC(=O)O)CC1)C(=O)N[C@@H](Cc1c[nH]c2ccccc12)C(=O)N[C@@H](CO)C(=O)O [copper-64 labelled] — activity concentration (human, urinary bladder; concentration not given, 1 h): 74400 Bq/mL and 74700 Bq/mL and 143000 Bq/mL and 41100 Bq/mL and 29400 Bq/mL and 124000 Bq/mL
C=CC(=O)Nc1cccc(Cn2ncc3cnc(Nc4cnn(CCOC)c4)nc32)c1 — percent of control (PKMYT1 human; binding, KINOMEscan; 100 nM; lower = stronger binding): 100%
CNS(=O)(=O)Nc1nccc(Cc2c(C)c3ccc(Oc4ncccc4F)cc3oc2=O)c1F — IC50 (COLO-684; cell viability; 7 days): > 1000 nM
COC1CN([C@H]2CC[C@H]([C@@]3(C)Oc4c(Cl)cc(C(=O)NCc5c(SC)cc(C)[nH]c5=O)c(C)c4O3)CC2)C1 — log2 fold change (RNA-seq, refers to: LOXL1 mouse homolog; mouse, HT-1376 xenograft, whole blood; dose not given; baseline: vehicle): 0.87

A few entries again:
CC(C)c1ccc(N(C)c2ccc3c(c2)OCC[C@H]3CNc2cnccc2C(=O)O)cc1 — IC50 (JIMT-1; cell viability, CellTiter-Glo; 7 days): 61.9 nM
CN1CCCNC(=O)c2cccc(c2)C(=O)NCCCN(C)CCCNc2cccc3c2C(=O)c2cccc(c2C3=O)NCCC1 — log2 fold change (SAS; RNA-seq, refers to: PVT1 mRNA; 1 µM, 6 h; baseline: untreated cells): 0.732
